Measured values of several laboratories.
Each line is one published result; not all experiments were run side by side. Values joined by “and” are separate records of one study, mostly repeats; a detail may differ. ± marks the error that the study gave.
TDP1: Tyrosyl-DNA phosphodiesterase 1 (TDP1, Homo sapiens, UniProt Q9NUW8)
UniProt Q9NUW8, sequence (whole entry, looked up): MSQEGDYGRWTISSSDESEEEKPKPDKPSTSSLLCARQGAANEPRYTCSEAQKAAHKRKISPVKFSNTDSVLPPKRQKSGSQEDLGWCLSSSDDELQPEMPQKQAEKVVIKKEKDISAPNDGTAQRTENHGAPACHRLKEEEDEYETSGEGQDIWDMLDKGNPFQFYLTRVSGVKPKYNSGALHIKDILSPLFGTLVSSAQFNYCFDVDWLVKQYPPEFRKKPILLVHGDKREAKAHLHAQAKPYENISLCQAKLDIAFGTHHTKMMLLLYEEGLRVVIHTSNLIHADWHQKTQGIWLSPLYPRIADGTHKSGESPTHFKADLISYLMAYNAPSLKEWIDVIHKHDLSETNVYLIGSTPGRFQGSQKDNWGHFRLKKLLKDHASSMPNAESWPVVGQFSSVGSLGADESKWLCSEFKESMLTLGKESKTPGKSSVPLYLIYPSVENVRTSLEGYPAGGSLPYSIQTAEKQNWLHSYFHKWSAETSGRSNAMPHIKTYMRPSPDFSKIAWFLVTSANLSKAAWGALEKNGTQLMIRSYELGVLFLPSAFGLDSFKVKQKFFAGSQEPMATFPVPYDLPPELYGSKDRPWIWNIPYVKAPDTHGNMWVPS

CC[C@H](C)NCC(SS(=O)(=O)O)c1ccccc1 (some centres unmarked)  body weight decrease (Swiss Webster mice, Schistosoma mansoni infected; 100 mg/kg; reference: vehicle control): -9.51%
Cn1ncc(Cl)c1C=NOCc1ccc(-c2nc3cc(-c4ccccc4)ccn3c2Nc2ccc(C(=O)O)cc2)cc1  inhibition (TDP1; enzyme activity, inhibitor; 100 µM, unpurified compound): 31.4%
CC(=O)N1CCN(C(=O)c2ccc(Nc3nccc(-c4ccc(Cl)cc4)n3)cc2)CC1  body weight (NSG mice; dose not given, day 2): 22.3 g and 24.4 g and 24 g and 24.2 g
COc1cc(N2CCN(C(=O)C3CCCN3)CC2)ccc1Nc1ncc(Cl)c(Nc2ccccc2P(C)(C)=O)n1 (centres unmarked)  body weight (nude mice, NCI-H3122 xenograft; intraperitoneal, 10 mg/kg every other day, day 15): 25.7 g and 28.5 g and 23.9 g and 25.6 g and 22.7 g
COc1ccc(CNc2nc([C@H]3CC[C@H](C(=O)O)CC3)nc3sc4ccccc4c23)cc1Cl  body weight (NSG mice; dose not given, day 5): 21.9 g and 21.1 g and 19.6 g
CCCC[C@@H](CSS(=O)(=O)O)NCCC  body weight decrease (Swiss Webster mice, Schistosoma mansoni infected; 100 mg/kg; reference: vehicle control): 6.5%
O=C(OCc1cccc(O)c1O)c1ccc(O)c(CO)c1  body weight (C57BL/6J mice, wild type; intraperitoneal, 2.5 mg/kg/day, day 14, saline infusion control): 33.3 ± 1.3 g
O=C1NC(=O)/C(=C/c2ccc3ncnc(N4CCC(F)CC4)c3n2)S1  body weight (NSG mice; dose not given, day 2): 22.7 g and 26.8 g and 22.6 g and 25 g
Cc1cnc2nc1Nc1cccc(c1)COC/C=C/COCc1cc(ccc1OCCN1CCOCC1)N2  body weight (BALB/c mice, rhEPO-induced polycythemia; 75 mg/kg, day 5): 19.4 g and 19 g and 20.9 g and 17.6 g and 18.3 g
CC(C)(C)NCC(SS(=O)(=O)O)c1ccccc1 (centres unmarked)  body weight decrease (Swiss Webster mice, Schistosoma mansoni-infected; 400 mg/kg single dose on day 42 post-infection, perfusion day 56 post-infection; reference: vehicle): -4.74%
O=C(O)c1ccc(Nc2c(-c3ccc(CON=Cc4ccc(N5CCCCC5)o4)cc3)nc3cc(-c4ccccc4)ccn23)cc1 (mixture of isomers)  inhibition (TDP1; enzyme activity, inhibitor; 100 µM, unpurified compound): 92.6%

Some of these lines once more:
Cc1cnc2nc1Nc1cccc(c1)COC/C=C/COCc1cc(ccc1OCCN1CCOCC1)N2  body weight (BALB/c mice, rhEPO-induced polycythemia; 75 mg/kg, day 5): 19.4 g and 19 g and 20.9 g and 17.6 g and 18.3 g
